Experimental data of several laboratories.
Compare with care: the assays were run in different laboratories. ± gives the spread as reported.

| SMILES | assay | test system | setting | how to read | measurement | value |
| --- | --- | --- | --- | --- | --- | --- |
| CC[C@H](C)[C@H](NC(=O)[C@H](CCCCN)NC(=O)[C@H](CS)NC(=O)[C@H](CC(N)=O)NC(=O)[C@H](C)NC(=O)[C@H](CCCNC(=N)N)NC(=O)[C@H](CCCNC(=N)N)NC(=O)[C@H](CC(N)=O)NC(=O)[C@H](CCCNC(=N)N)NC(=O)[C@@H](NC(=O)[C@H](CCCNC(=N)N)NC(=O)[C@H](CS)NC(=O)[C@H](CO)NC(=O)[C@@H](NC(=O)[C@@H](NC(=O)[C@H](CS)NC(=O)[C@H](CCCCN)NC(=O)[C@@H](N)CCCNC(=N)N)C(C)C)[C@@H](C)CC)[C@@H](C)CC)C(=O)N[C@@H](CC(C)C)C(=O)N[C@@H](CS)C(=O)N[C@@H](CC(N)=O)C(=O)O | LC/MS | PBS | 0.1 mg/mL | relative to: LC peak area | two-disulfide form | 51% |
| CC(C)CCCC(C)CCCC(C)CCOC1O[C@H](CO)[C@@H](O)[C@H](O)[C@H]1O (some centres unmarked) | filtration and HPLC-MS | water | room temperature |  | aqueous solubility | 13.1 ppm |
| CC(C)[C@H](NC(=O)CNC(=O)[C@H](CCC(N)=O)NC(=O)[C@H](C)N)C(=O)O |  | human, plasma | intravenous infusion, 10 mg/kg single, 15 min infusion, geometric mean |  | AUC(0-inf) | 175 ng·h/mL |
| CC[C@H](C)[C@H](NC(=O)[C@H](Cc1ccccc1)NC(=O)[C@H](CC(=O)O)NC(=O)[C@H](CCCNC(=N)N)NC(=O)[C@H](Cc1ccccc1)NC(=O)[C@H](Cc1ccccc1)NC(=O)[C@H](CCCN)NC(=O)[C@H](CO)NC(=O)[C@H](CC(C)C)NC(=O)[C@H](CCCNC(=N)N)NC(=O)[C@H](CCSC)NC(=O)[C@H](C)N)C(=O)N[C@@H](CCCN)C(=O)N[C@@H](CCC(N)=O)C(=O)N[C@@H](CCCNC(=N)N)C(=O)N[C@@H](CCCCN)C(=O)N[C@@H](CCCCN)C(=O)O | circular dichroism | 20% TFE in PBS | 200 µM, pH 7.4, 25 °C |  | helicity | 18.1% |
| N=C(N)NCCC[C@@H]1NC(=O)[C@H](Cc2c[nH]c3ccccc23)NC(=O)[C@@H](CC2CCCCC2)NC(=O)[C@@H]2CCCN2C(=O)[C@@H](NC(=O)CCc2ccccc2)CCCNC1=O |  | C57BL/6J mice, spinal cord | subcutaneous, 1 mg/kg, two-compartment model |  | apparent total clearance (CL/F) | 1 ng/(min·ng/g) |
| CC(C)(Sc1ccncc1-c1ccc(C#N)c2ccccc12)C(=O)OC1OC(C(=O)O)C(O)C(O)C1O (centres unmarked) |  | plasma | oral, 15 mg, severe renal impairment | relative to: impaired over normal renal function | AUC(0-inf) ratio | 416% |
| CC[C@@H](C)[C@H]1NC(=O)[C@@H]([C@H](C)O)NC(=O)[C@@H](Cc2c[nH]cn2)NC(=O)CNC(=O)[C@@H](CCCNC(=N)N)NC(=O)CNC(=O)[C@@H](Cc2ccccc2)NC1=O |  | New Zealand rabbit, retina-choroid | eye drop, 0.5% single, 24 h |  | retina-choroid concentration | 3.5 µg/g protein |
| NC(=O)c1ccc(C(=O)NOCc2ccc(Sc3cccc(Cl)c3)c(C(F)(F)F)c2)cc1 |  | male ICR mouse, plasma | intraperitoneal, 30 mg/kg |  | AUC(0-inf) | 24500 ng·h/mL |
| COCC1CN(C2CCN(c3cc(OC)c(Nc4ncc(Br)c(Nc5ccc6c(c5P(C)(C)=O)OCCO6)n4)cc3C)CC2)C1 |  | human, plasma | oral, 10 to 150 mg multiple doses, 21 days |  | accumulation ratio of Cmax | 1.7 to 4.1 |
| CC(NC(=O)OC1OC(C(=O)O)C(O)C(O)C1O)c1cc(Cl)ccc1Cn1c(=S)[nH]c(=O)c2[nH]ccc21 (centres unmarked) |  | dog, both sexes, plasma | oral, 100 mg/kg/day | relative to: dog over human 10 mg | exposure ratio | 1.4 |
| O=C(O)C1OC(OC2C(COS(=O)(=O)O)OC(OC3C(C(=O)O)OC(OC4C(COS(=O)(=O)O)OC(OC5C(C(=O)O)OC(OC6C(COS(=O)(=O)O)OC(OC7C(C(=O)O)OC(OC8C(COS(=O)(=O)O)OC(OC9C(C(=O)O)OC(OC%10C(COS(=O)(=O)O)OC(OC%11C(C(=O)O)OC(Oc%12ccc([N+](=O)[O-])cc%12)C(O)C%11O)C(NS(=O)(=O)O)C%10O)C(OS(=O)(=O)O)C9O)C(NS(=O)(=O)O)C8O)C(OS(=O)(=O)O)C7O)C(NS(=O)(=O)O)C6O)C(OS(=O)(=O)O)C5O)C(NS(=O)(=O)O)C4O)C(OS(=O)(=O)O)C3O)C(NS(=O)(=O)O)C2OS(=O)(=O)O)C(O)C(O)C1OC1OC(COS(=O)(=O)O)C(O)C(O)C1NS(=O)(=O)O (centres unmarked) |  | rats | intravenous, 3600 µg/kg/day for 7 days, day 8 |  | body weight | 271 ± 5.9 g |
| CCCC(CCC(=O)O)NC(=O)c1ccc2c(c1)OCO2 (centres unmarked) |  | male Sprague-Dawley rat, plasma | oral, 200 mg/kg of parent drug |  | Tmax | 1.5 h |
| COc1cc(NC(C)=O)c2c(c1O)-c1c(OC)c(OC)cc3c1C(C2)N(C)CC3 (centres unmarked) |  | rat lung homogenate | 0.5 µg/mL, 4 h, room temperature, short-term storage |  | remaining compound | 107 ± 2.7% |
| O=C([O-])CN1CCN(CC(=O)[O-])CCN(CC(=O)NCCc2ccc3c(c2)C2C=CCC2C(c2cc4c(cc2Br)OCO4)N3)CCN(CC(=O)[O-])CC1.[111In+3] (centres unmarked) |  | mouse, Hec50 endometrial tumour, lungs | 1 h post injection |  | tissue uptake | 2.5 ± 0.44 %ID/g |
| CN1CCC(N[C@@H]2CCc3[nH]c4c(C(N)=O)ccc(-c5ccccc5Cl)c4c3C2)CC1 |  | mouse, plasma | intravenous, 2 mg/kg |  | MRT(0-inf) | 9.05 h |
| CC(=O)N[C@@H](CC(N)=O)C(=O)NCC(=O)N[C@@H](C)C(=O)N[C@@H](C)C(N)=O | 1H NMR | sodium phosphate buffer 50 mM | pH 6.3, 55 °C |  | half-life of Asn form | 29.5 h |
| CC1(C)C(/C=C/C2=C(Oc3ccc(CCC(=O)NCCC(O)(P(=O)([O-])O)P(=O)(O)O)cc3)C(=C/C=C3/N(CCC[N+](C)(C)C)c4ccc(S(=O)(=O)[O-])cc4C3(C)C)/CCC2)=[N+](CCC[N+](C)(C)C)c2ccc(S(=O)(=O)[O-])cc21 (centres unmarked) |  | mouse, male, whole blood | intravenous, 10 nmol, over 4 h |  | elimination half-life | 0.667 h |
| Cc1ccc(/N=N/c2c(O)ccc3ccccc23)c(C)c1 |  | rat whole blood extract | 0.5 µg/L, 30 days, -20 °C, long-term storage |  | measured concentration | 0.492 µg/L |
| CCCCN1C(=O)c2cccc3c(NCCCCCCCCN4CCOCC4)ccc(c23)C1=O |  | water | pH 6 | relative to: fluorescein/0.1 N NaOH | fluorescence quantum yield | 0.23 |
| CC(C)(C)NCC(SS(=O)(=O)O)c1ccccc1 (centres unmarked) |  | Swiss Webster CFW mouse, female, plasma | intravenous, 15 mg/kg, from 0 h to infinity |  | AUC(0-inf) | 2560 ng·h/mL |
| N=C(N)NCCC[C@H](NC(=O)[C@@H]1CCCN1C(=O)[C@H](Cc1ccccc1)NC(=O)[C@@H]1CCCN1C(=O)[C@H](Cc1c[nH]cn1)NC(=O)[C@@H](N)Cc1ccccc1)C(=O)O |  | Sprague-Dawley rats, male, plasma | oral, 50 mg/kg |  | MRT(0-t) | 0.798 ± 0.171 h |
| O=S(=O)(c1ccccc1)N1CCCCC1 | HPLC |  | pH 7.5 |  | chromatographic logD | 2.6 |
| CCC(CC)CNC(=N)NC(=N)NCCCCCCNC(=N)NC(=N)NCC(CC)CC |  | Caco-2 | 5 µM, 2 h |  | efflux ratio | 1.95 |
| COc1ccc(S(=O)(=O)N2CCc3ccccc3C2)cc1N1CCN(C(=O)c2ccc(F)cc2C(F)(F)F)CC1 |  | rat, brain | intravenous, 10 mg/kg, 3 h, single dose |  | concentration | 5.6 ng/g |
| COc1ccc(/C=C/c2ccc(-c3ccc(C)cn3)nc2)cc1 |  | hexanes | with: quinine bisulfate reference |  | fluorescence quantum yield | 0.6 |
| Cn1c(=O)oc2ccc(-c3ccc(CC(C#N)NC(=O)C4CNCCCO4)c(F)c3)cc21 (centres unmarked) |  | human | oral, 10 mg once daily, treatment-related AE, multiple ascending dose |  | lymphadenopathy incidence | 0% |

Some of these lines once more:
| SMILES | assay | test system | setting | how to read | measurement | value |
| --- | --- | --- | --- | --- | --- | --- |
| N=C(N)NCCC[C@H](NC(=O)[C@@H]1CCCN1C(=O)[C@H](Cc1ccccc1)NC(=O)[C@@H]1CCCN1C(=O)[C@H](Cc1c[nH]cn1)NC(=O)[C@@H](N)Cc1ccccc1)C(=O)O |  | Sprague-Dawley rats, male, plasma | oral, 50 mg/kg |  | MRT(0-t) | 0.798 ± 0.171 h |
